Measurements from different studies.
A part holds a random share of what one study measured.

Study 1
Target: RING finger protein unkempt homolog, zinc fingers 1-6, GST-SBP tag (UNK, Homo sapiens, UniProt Q9C0B0, residues 30-357)
Sequence of UniProt Q9C0B0 (30-357, looked up): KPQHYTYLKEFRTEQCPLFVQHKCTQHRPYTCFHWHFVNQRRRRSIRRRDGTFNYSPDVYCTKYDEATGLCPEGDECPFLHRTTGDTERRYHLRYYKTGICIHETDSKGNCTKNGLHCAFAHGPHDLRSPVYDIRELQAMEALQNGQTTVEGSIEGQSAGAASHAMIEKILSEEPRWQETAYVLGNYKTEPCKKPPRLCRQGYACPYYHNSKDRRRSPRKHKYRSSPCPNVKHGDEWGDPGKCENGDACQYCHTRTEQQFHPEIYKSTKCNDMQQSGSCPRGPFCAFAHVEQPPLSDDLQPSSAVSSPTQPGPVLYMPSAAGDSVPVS
Technique: RNA Bind-n-Seq
Form: RNA
Sample: in vitro
Concentration: not given
Notes: RNA with constant flanks, human and mouse sites, ends assumed
Baseline: input RNA pool
Reading: higher = stronger binding
Constant ends, left off below: GGGAGUUCUACAGUCCGACGAUC … CAACAGAGGAUUGAGCAUCA
Strand	bound/input enrichment
UUCUUAGACCUUUUAGACAUCUUAAUAAGAAGUCCUGGGAGUAUAAAACGAGAAGAAAAGCUAGAAGAUCUUAAGCUACUUUUUGUACAUGUACAUCAUCUUAUAAAUGAAUAUCGACCC	0.645 ratio
GAUGACAAUCCAUUUGCAGAGUACAUGUGGAUGGAAAAUGAAGAAGAAUUCAACAGACAAAUAGAAGAGGAGUUAUGGGAAGAAGAAUUUAUUGAACGCUGUUUCCAAGAAAUGCUGGAA	0.928 ratio
CCGCCACGUCCUGCUUCAGGAGGAGGUGGCCGAGCUGCAGGGCCAGGUCCAGCGCACCGAAGUGGCCCGCGGGCGGCUGGAAAAGCGCAAUUCGGACCUCUUGCUGUUGGUGGACACGCA	0.126 ratio
GGAGGGCCGCCGGCUGUGUUGCUGCCGCGGGCGGAGGAGGCGCUGCCGGUUCUCUGAGUUUCACCAGUAAUGCCACUCAGUUGCCAAUAUCAAGCAAGCGCAUAUAAGACACUUGUAAUC	0.235 ratio
AAUUAUAUGAACCAAUUGUAUCAAGCUAUGCAUCGGAUUUAUGAUGCACAGAAUGAAUUGAGUGCAGCAACACACCUGACUUCGAAACUUUUGAAAGAAUAUGAAAAACAGCGUUUUCCU	0.146 ratio
GCGGGUGUACGGGGUUAUCUUGACAAACUGGAGCCCAGCAAGAUCACAAAGUUUGAGAAUGCUUUCUUGUCUCACGUUAUCAGCCAGCACCAGUCCCUCUUGGGCAAUAUCAGGUCUGAU	0.0756 ratio
UCACUCCCGUAGCAUGCCCUUGUAGUUUCUCUUGACCAAGGAUGAACUAGUCCUGUGAGCUGGCCGUCAGCUCCUGCAUAUGUGUAUAAACCUCAGAUGUUACUACGUUUUAUACCUACC	1.35 ratio
GAUGGAGCCGUCUUCUUUAACAAGGAAAGAACCAGAAACAUUGUUAAGUUUGACUUGAGGACUAGAAUCAAGAGCGGCGAGGCUAUCAUCAACUAUGCCAACUACCACGAUACGUCACCC	0.108 ratio

Study 2
Target: Fragile X messenger ribonucleoprotein 1, C-terminal low-complexity region (Fmr1, Mus musculus, UniProt P35922)
Technique: RNA Bind-n-Seq
Form: RNA
Sample: in vitro
Concentration: 200 nM
Notes: whole 134-nt RNA, ends assumed
Together with: 150 mM LiCl
Baseline: input library
Reading: higher = stronger binding
Each molecule: 7-deaza-guanosine replaces G
Constant ends, left off below: GGGAGUUCUACAGUCCGACGAUC … UGGAAUUCUCGGGUGUCAAGG
Strand	log2 enrichment
UCCUGUGCUACACAUCGUAUGUACCGAAUCGGGGAAAAAGGGGUUUUUGGGGUUUGGGGAAAGUAUUAUGUUACGCCGUUCGGAUCUGCA	-1.45
UUAGGGAUGUGGCCAUAGAAUUCUCUCAGGAGGAGUGGAAAUGCCUGGACCCUGCUCAGAGGAUCUUAUACAGGGACGUGAUGUUGGAGA	0.146
AAGUCCUGUGCUACACAUCGUAUGUACCGAAUCGGUUUUUGGUUUGGUUUUUUUGGAAAGUAUUAUGUUACGCCGUUCGGAUCUGCACUU	-2.56
UCCUGUGCUACACAUCGUAUGUACCGAAUCGGGGUUUUUGGGGUUUGGGGAAAAAGGGGAAAGUAUUAUGUUACGCCGUUCGGAUCUGCA	-1.58
GUCCUGUGCUACACAUCGUAUGUACCGAAUCGGGUUUUUGGGAAAAAGGGAAAAAGGGAAAGUAUUAUGUUACGCCGUUCGGAUCUGCAC	-1.18
UGUGACAGGAGAGCGCUUGAAGAGCAAUGUGACGAGGACCAUCAGACACCGAGGGAUGGAGAGACAUCCCACAGGGCCCAGAUUCAGCAG	0.868
UCAAGUCCUGUGCUACACAUCGUAUGUACCGAAUCGGGGCCGGGGCCGGCCGGGGAAAGUAUUAUGUUACGCCGUUCGGAUCUGCACUUC	-0.0383
CCUCAAGUCCUGUGCUACACAUCGUAUGUACCGAAUCGGAGGAGGAAAAAGGAAAGUAUUAUGUUACGCCGUUCGGAUCUGCACUUCCAG	-0.805

Study 3
Target: Histone acetyltransferase KAT6A, winged helix 1, GST fusion (KAT6A, Homo sapiens, UniProt Q92794, residues 1-85)
Technique: protein binding microarray
Form: double-stranded DNA, one strand shown
Sample: in vitro
Concentration: not given
Notes: 8-mer, flanks averaged, mean of 2 arrays, mostly near background
Baseline: not given
Reading: higher = stronger binding
Construct (chain): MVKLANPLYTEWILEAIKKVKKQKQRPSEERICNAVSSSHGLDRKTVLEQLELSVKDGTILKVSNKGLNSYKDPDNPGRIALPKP
Strand	E-score
GGCCCCAA	0.051
TCGTTGCA	-0.21
GGAACTGA	-0.0459
GCGGGTAA	0.324
AGAGTGGA	-0.182
AGGACCAT	-0.14
AAGCACTG	-0.204
GGATGGTA	-0.232
ATGAGCCG	0.0531
TAAACTCA	-0.127
CCCTGCGC	0.222
ACTTTCCG	0.0408
AAGGAACA	-0.211
AGCGTTCA	0.032
AGTTGAAC	-0.155
CCTCTAGA	-0.0835
GCGGTTCA	0.254
CCGGCGCA	0.45

Study 4
Target: Interferon regulatory factor 7, full length, phosphomimetic (IRF7, Homo sapiens, UniProt Q92985, residues 1-503, S101K/S471D/S472D/S475D/S476D/S477D/S483D/S484D/S487D)
Sequence of UniProt Q92985 (whole entry, unmodified, looked up): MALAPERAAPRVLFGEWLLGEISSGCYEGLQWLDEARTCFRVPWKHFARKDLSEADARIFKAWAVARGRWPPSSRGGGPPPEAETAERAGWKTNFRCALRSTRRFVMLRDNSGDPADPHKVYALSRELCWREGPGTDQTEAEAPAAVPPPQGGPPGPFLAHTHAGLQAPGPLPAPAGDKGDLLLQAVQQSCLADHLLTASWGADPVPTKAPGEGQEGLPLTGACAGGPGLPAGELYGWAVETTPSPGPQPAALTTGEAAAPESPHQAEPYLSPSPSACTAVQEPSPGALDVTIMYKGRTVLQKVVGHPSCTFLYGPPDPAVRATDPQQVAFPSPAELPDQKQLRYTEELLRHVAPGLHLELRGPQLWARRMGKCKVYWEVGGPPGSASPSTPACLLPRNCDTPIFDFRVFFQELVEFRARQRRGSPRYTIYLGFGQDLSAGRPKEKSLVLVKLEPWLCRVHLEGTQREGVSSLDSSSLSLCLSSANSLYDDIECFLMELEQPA
Technique: protein-binding microarray
Form: double-stranded DNA, one strand shown
Sample: in vitro
Concentration: 250 nM
Notes: 60-bp whole probe
Together with: salmon DNA 0.4 mg/ml
Baseline: random background probes
Reading: higher = stronger binding
Constant ends, left off below: GCCTAGCAC … GTCTTGATTCGCTTGACGCTGCTG
Strand	log fluorescence
GACGGACTGCTTCTACTGACGTGCTAG	-0.503 z-score
TTGTATCTGGGTTCCCCCCCGTGCTAG	0.523 z-score
TTAGATGTCGGGTTTCGATTAGTGCTA	6.12 z-score
GTAGATATCGGGACTGGATTAGTGCTA	-0.128 z-score
TCACATTGAGATTTCCAACTGTGCTAG	0.324 z-score
TTAGGTTCCATTTTCCTTTAGTGCTAG	4.24 z-score
GACGGACTGGTTTTCCTGACGTGCTAG	-0.222 z-score
GACGTTATCGGACTGGGGACGTGCTAG	-0.0834 z-score
CTGCCCTGGTTCCCCTGCCTGTGCTAG	0.607 z-score
GACGGTTTCGACTATTGGGACGTGCTA	4.7 z-score
TTAGGTTTCGACTTTCGGATAGTGCTA	11.7 z-score
TACGGTATCCTACTGCTGACGTGCTAG	-0.254 z-score
TTAGATTTCGGGACTGGATTGGTGCTA	0.523 z-score
GACGGTTTCGGTTTCGGGAAGTGCTAG	14.3 z-score
CACGGTTTCGGGTATCGGGACGTGCTA	7.78 z-score
TTAGGATCCGGTTTCGGTTAGTGCTAG	9.54 z-score
TCTTTTATTTTTTTTATTTAGTGCTAG	2.32 z-score
TGAGGTCTCGGTCTCGGTTAGTGCTAG	1.78 z-score
GACGATATCAGTTTCGAGTCGTGCTAG	8.25 z-score

Excerpt of the above (study 1):
Strand	bound/input enrichment
GAUGACAAUCCAUUUGCAGAGUACAUGUGGAUGGAAAAUGAAGAAGAAUUCAACAGACAAAUAGAAGAGGAGUUAUGGGAAGAAGAAUUUAUUGAACGCUGUUUCCAAGAAAUGCUGGAA	0.928 ratio
CCGCCACGUCCUGCUUCAGGAGGAGGUGGCCGAGCUGCAGGGCCAGGUCCAGCGCACCGAAGUGGCCCGCGGGCGGCUGGAAAAGCGCAAUUCGGACCUCUUGCUGUUGGUGGACACGCA	0.126 ratio
GGAGGGCCGCCGGCUGUGUUGCUGCCGCGGGCGGAGGAGGCGCUGCCGGUUCUCUGAGUUUCACCAGUAAUGCCACUCAGUUGCCAAUAUCAAGCAAGCGCAUAUAAGACACUUGUAAUC	0.235 ratio
AAUUAUAUGAACCAAUUGUAUCAAGCUAUGCAUCGGAUUUAUGAUGCACAGAAUGAAUUGAGUGCAGCAACACACCUGACUUCGAAACUUUUGAAAGAAUAUGAAAAACAGCGUUUUCCU	0.146 ratio
GCGGGUGUACGGGGUUAUCUUGACAAACUGGAGCCCAGCAAGAUCACAAAGUUUGAGAAUGCUUUCUUGUCUCACGUUAUCAGCCAGCACCAGUCCCUCUUGGGCAAUAUCAGGUCUGAU	0.0756 ratio
UCACUCCCGUAGCAUGCCCUUGUAGUUUCUCUUGACCAAGGAUGAACUAGUCCUGUGAGCUGGCCGUCAGCUCCUGCAUAUGUGUAUAAACCUCAGAUGUUACUACGUUUUAUACCUACC	1.35 ratio
GAUGGAGCCGUCUUCUUUAACAAGGAAAGAACCAGAAACAUUGUUAAGUUUGACUUGAGGACUAGAAUCAAGAGCGGCGAGGCUAUCAUCAACUAUGCCAACUACCACGAUACGUCACCC	0.108 ratio
